Published values from different studies.
Protocols differ between the studies behind these lines. ± marks the error that the study gave.

SMILES | cell line | assay | conditions | IC50
CC(C)c1cccc(C(C)C)c1N1CCN(c2c(C(C)C)cccc2C(C)C)C1=[Se].[Cl][Au] | H157 spheroids | acid phosphatase | 72 h, 3D spheroid | 8.3 ± 0.4 µM
CC(C)(C)OC(=O)N1CCN(CCNC2=C(Cl)C(=O)c3ccccc3C2=O)CC1 | HEC-1-A | cell growth or viability, MTT | 48 h | 15.8 µM
CC(C)c1ccc(/C=C/C(=O)N[C@@H]2O[C@H](CO)[C@@H](O)[C@H](O)[C@H]2O)cc1 | L1210 | cell growth or viability | 48 h | > 250 µM
CCCCCCCCCCCCCCCC(=O)OCCN1CCN(c2cc(Nc3ncc(C(=O)Nc4c(C)cccc4Cl)s3)nc(C)n2)CC1 | BV-173 | cell growth or viability, MTT | 72 h | < 5.12e-05 µM
CCCN(CCC)C(=S)SC[C@@H]1C(=O)O[C@H]2[C@H]1CC/C(C)=C/CC[C@@]1(C)O[C@@H]21 | KG-1a | cell growth or viability, MTT | 72 h | 50 µM
COc1cc(-c2nc3ccc(C(=O)NCCCN4CCN(c5ccccn5)CC4)cc3n2C2CCC2)cc(OC)c1OC | 293 T-BRE-Luc | reporter gene, inhibitor | 6 h, with: BMP7-induced BMP7 500 ng/mL | 1.09 µM
Cc1c(C)n(-c2c(C(C)C)cccc2C(C)C)c(=[Se])n1-c1c(C(C)C)cccc1C(C)C.[Cl][Ag] | PSN1 | cell growth or viability, MTT | 72 h | 0.3 µM
CN(C)C(=S)N(C)N=Cc1ccccc1SSc1ccccc1C=NN(C)C(=S)N(C)C | breast, ovarian, colorectal cancer cells | MTT | 72 h, four cancer cell lines | < 0.4 µM
CC(C)c1cccc(C(C)C)c1-n1c(Cl)c(Cl)n(-c2c(C(C)C)cccc2C(C)C)c1=[Se].[Cl][Au] | A2780 ADR | MTT | 72 h | 0.2 ± 0.02 µM
C=C(C)C(O)COc1c2occc2cc2ccc(=O)oc12 (centres unmarked) | L5178Y | cell growth or viability, MTT | 24 h | > 100 µM
CC1(N)CCN(c2nc(N(Cc3ccccc3)Cc3ccccc3)nc3c2ncn3Cc2ccccc2)CC1 | SNU1197 (KRAS G12D) | cell viability, WST | 72 h | 2.9 ± 0.3 µM
C=CCc1ccc(OCc2nnc(SCC(=O)Nc3ccc(Cl)cc3Cl)o2)c(OC)c1 | MCF7, SK-OV-3, PC-3 | cell growth, MTT |  | ≤ 10 µM
CC(=O)Oc1ccccc1C(=O)[O][Pt]([NH2])([NH2])([Cl])([Cl])[O]C(=O)C(Cl)Cl | 2008 cisplatin-sensitive | cytotoxicity, MTT | 72 h | 0.61 ± 0.19 µM
O=C(O)c1n[nH]cc1-c1nc2ccc3[nH]ncc3c2c2c1CCCC2 | MV4-11 | cell growth or viability, resazurin | 72 h | > 5 µM
CC(C)c1cccc(C(C)C)c1-n1c2c([n+](-c3c(C(C)C)cccc3C(C)C)[c]1[Au-][Cl])-c1cccc3cccc-2c13 | PSN1 | cell growth or viability, MTT | 72 h | 15 µM
CN1CCN(/C=C/C(=O)c2ccc3[nH]c4ncc(-c5ccc(N6CCN(C)CC6)cc5)cc4c3c2)CC1 | parental Ba/F3 (IL-3 dependent) | cell proliferation, [3H]-thymidine incorporation |  | 0.48 µM
CC(C)c1cccc(C(C)C)c1[N+]#[C][Pd-]([Cl])([Cl])=[C](Nc1cccc(CN[C](NC(C)(C)C)=[Au][Cl])c1)Nc1c(C(C)C)cccc1C(C)C | OVCAR-3 | cell growth or viability |  | 40 µM
C#Cc1cccc(Nc2ncnc3cc(OC)c(OCCCN4CCOCC4)cc23)c1 | PC-9 | cell growth or viability, SRB | 72 h | < 1 µM
Cc1nn(-c2ccc(S(=O)(=O)N[C@H](CO)CC(C)C)cc2)c2nn3nnnc3nc12 | CCD-841CoN | cell growth or viability, MTT | 72 h | 1.15 µM
CC(=O)OC[C@H]1O[C@@H](NC(=O)/C=C/c2ccc(-c3ccccc3)cc2)[C@H](OC(C)=O)[C@@H](OC(C)=O)[C@@H]1OC(C)=O | L1210 | cell growth or viability | 48 h | ≥ 250 µM
CCC(C(=O)O)C1CCC(C)C(C(C)C(O)C(C)C(=O)C(CC)C2OC3(C=CC(NCc4cn(-c5ccc(C(C)=O)cc5)nn4)C4(CCC(C)(C5CCC(O)(CC)C(C)O5)O4)O3)C(C)CC2C)O1 (centres unmarked) | HMLER CD24low/CD44high | cell proliferation | 72 h | 0.04 ± 0.01 µM
COc1cc(C(=O)c2[nH]c(N)nc2-c2cccs2)cc(OC)c1OC | EMT6/AR1 | cell growth or viability, SRB |  | 2.43 µM
Cc1cn([C@@H]2O[C@H](CSSc3ccccn3)[C@@H](O)[C@H](F)[C@H]2O)c(=O)[nH]c1=O | L1210 | cell growth or viability |  | 120 µM
CCCCCCCCCCCCCCCCCCCCCCCCCCCCCCOC(=O)/C=C/c1ccc(O)cc1 | J774.2 | NO release, inhibitor | LPS-stimulated | > 100 µg/mL
COc1cccc(-c2ccc(Nc3ccc(CN(C)C)cc3)c(OC)c2F)c1 | A-375 | HTRF, refers to: total Akt |  | > 1000 µM
COC(=O)[C@@H]1[C@@H](OC)[C@H](OC(=O)c2cc(OC)c(OC)c(OC)c2)C[C@@H]2CN3CC[C@]4(O[C@@H]3C(=O)[C@@H]21)C(=O)Nc1cc(OC)c(-c2ccc(C(F)(F)F)cc2)cc14 | SU-DHL-4 | cell growth or viability, trypan blue | 72 h | 1.14 µM
COc1ccc2nc(NC(=O)c3ccc(C(N)c4ccccc4)cc3)sc2c1 (centres unmarked) | NCI-H2122 | cell growth or viability |  | 0.022 µM

SMILES | cell line | assay | conditions | IC50
C/C(=N\N=c1\sc(/N=N/c2ccc([N+](=O)[O-])cc2[N+](=O)[O-])c(C)n1C)c1c(O)c2ccccc2oc1=O | BJ-1 skin fibroblasts | cytotoxicity, LDH release | 48 h | 27.1 ± 2.3 µM
OCCc1cc(CN(Cc2ccccn2)Cc2ccccn2)c(O)c(CN(Cc2ccccn2)Cc2ccccn2)c1 | CHO-K1 | cytotoxicity | 72 h | > 100 µM
O=c1ccn([C@@H]2O[C@H](CSSc3ccccn3)[C@@H](O)[C@H](F)[C@H]2O)c(=O)[nH]1 | L1210 | cell growth or viability |  | 9.5 µM
COc1ccc([C@@H]2CC(=O)c3c(O)cc(O[C@@H]4O[C@H](CO[C@@H]5O[C@@H](C)[C@H](O)[C@@H](O)[C@H]5O)[C@@H](O[C@H]5O[C@H](CO)[C@@H](O)[C@H](O)[C@H]5O)[C@H](O)[C@H]4O)cc3O2)cc1O | MRC5 | cell growth or viability, trypan blue | 72 h | > 150 µg/mL
CSC(=S)NCc1cccnc1 | KG-1a | cell growth or viability, MTT | 72 h | 5.2 µM
COC(=O)[C@H]1[C@H]2C[C@H]3O[C@@]4(CCN3C[C@H]2C[C@@H](OC(=O)c2cc(OC)c(OC)c(OC)c2)[C@@H]1OC)C(=O)Nc1cc(OC)ccc14 | SU-DHL-4 | cell growth or viability, trypan blue | 72 h | 61.4 µM
COc1ccc2cc([C@H](C)C(=O)[O][Pt]([NH2])([NH2])([Cl])([Cl])[O]C(=O)[C@@H](C)c3ccc4cc(OC)ccc4c3)ccc2c1 | LO-2 normal liver | cell growth, MTT | 48 h | 0.09 ± 0.01 µM
CC1CCC(NC(=O)N(C)c2cnc3ccc(-c4ccc(OCCCCCC(=O)NO)nc4)cc3n2)CC1 (centres unmarked) | Tera-1 | cell growth, MTT | 48 h | 0.25 µM
C=C1C(=O)OC2CC3=C[C@@H](C/C(C)=C/C(OC(=O)Cc4cccc5ccccc45)[C@H]12)OC3=O (some centres unmarked) | KATO III | cell growth or viability, MTT | 24 h | 0.65 µM
COCC1CN(C2CCN(c3cc(OC)c(Nc4ncc(Br)c(Nc5ccc6c(c5P(C)(C)=O)OCCO6)n4)cc3C)CC2)C1 | Ba/F3 EGFR Del19/T790M/C797S | cell growth, CellTiter-Glo | 3 days | 0.0249 µM
CCCC(CCC)C(=O)[O][Pt]([NH2])([NH2])([Cl])([Cl])[O]C(=O)c1ccccc1OC(C)=O | PSN1 | cell growth or viability, MTT | 72 h | 0.13 µM
Cl.[Cl][Ru-]1[S+]=C(N2CCCC2)N[N+]1=Cc1ccc(N(c2ccccc2)c2ccccc2)cc1.c1ccccc1 | HeLa S3 | cytotoxicity, MTT | 24 h | 5.3 ± 3.8 µM
Cc1cc(C)c(N[C](NCc2ccc(N[C](Nc3c(C(C)C)cccc3C(C)C)=[Pt-]([Cl])([Cl])[C]#[N+]c3c(C(C)C)cccc3C(C)C)cc2)=[Au][Cl])c(C)c1 | OVCAR-3 | cell growth or viability |  | > 100 µM
CC(C)=CCc1c2c(c(O)c3c(=O)c(-c4ccc(O)cc4O)coc13)C=CC(C)(C)O2 | MDA-MB-231, Huh-7, KKU100, NHDF cells | cell viability, MTT | 24 h | 13.9 to 30.9 µM
O=C(Nc1ccn([C@@H]2O[C@H](CO)[C@@H](O)[C@H](F)[C@H]2O)c(=O)n1)c1ccccc1 | L1210 | cell growth or viability |  | > 200 µM
N#Cc1c(-c2ccc(Cl)cc2)cc(-c2cccc3ccccc23)nc1NNC(=O)Cc1ccccc1 | RKOp27 | cell growth or viability, MTT | 72 h | 0.016 µM
CN1CCCNC(=O)CC2(CCCCC2)CC(=O)NCCCN(C)CCCNc2cccc3c2C(=O)c2cccc(c2C3=O)NCCC1 | HSC-2 | cell growth or viability, CCK-8 | 48 h | > 20 µM
CNC(=O)C1CCN(c2cc(C)c(F)cc2NC(=O)c2ccc(-c3cc(O)ccc3C)c(C)c2)CC1 | A673 | cell growth or viability, ATP luminescence | 72 h | 8.76 µM
C/C1=C\CC[C@@]2(C)O[C@H]2[C@H]2OC(=O)[C@@H](CSC(=S)N(C)c3ccccn3)[C@@H]2CC1 | KG-1a | cell growth or viability, MTT | 72 h | 13.9 µM
CC(C)c1cccc(C(C)C)c1[N+]#[C][Pt-]([Cl])([Cl])=[C](Nc1ccc(CN[C](Nc2c(C(C)C)cccc2C(C)C)=[Au][Cl])cc1)Nc1c(C(C)C)cccc1C(C)C | OVCAR-3 | cell growth or viability |  | > 100 µM
CCC(CC)c1nc(-c2ccc(O)cc2O)cs1 | patient-derived fibroblasts | cell growth, PrestoBlue | 72 h | 14.4 µM
CC(C)c1cccc(C(C)C)c1-n1ccn(-c2c(C(C)C)cccc2C(C)C)c1=[Se].[Cl][Au] | A2780 ADR | MTT | 72 h | 0.3 ± 0.05 µM
COc1ccc(-c2cc(=O)c3c(O)cc(O[C@@H]4O[C@H](CO)[C@@H](O)[C@H](O)[C@H]4O)cc3o2)cc1OC | CEM/ADR5000 P-gp overexpressing | cell viability, resazurin reduction | 72 h | 18.7 µM
CC(=O)OC[C@H]1O[C@@H](NC(=O)[C@@H](C)Cc2ccc(C(C)C)cc2)[C@H](OC(C)=O)[C@@H](OC(C)=O)[C@@H]1OC(C)=O | L1210 | cell growth or viability | 48 h | 103 µM
CN1CCN(Cc2cccc(-c3ccc4[nH]c5ncc(/C=C/c6ccccc6)cc5c4c3)c2)CC1 | parental Ba/F3 (IL-3 dependent) | cell proliferation, [3H]-thymidine incorporation |  | 2.2 µM
Cc1cc(C)c(N[C](NCc2ccc(N[C](Nc3c(C(C)C)cccc3C(C)C)=[Pd-]([Cl])([Cl])[C]#[N+]c3c(C(C)C)cccc3C(C)C)cc2)=[Au][Cl])c(C)c1 | OVCAR-3 | cell growth or viability |  | 40 µM

A few entries again:
SMILES | cell line | assay | conditions | IC50
C#Cc1cccc(Nc2ncnc3cc(OC)c(OCCCN4CCOCC4)cc23)c1 | PC-9 | cell growth or viability, SRB | 72 h | < 1 µM
CC(C)(C)OC(=O)N1CCN(CCNC2=C(Cl)C(=O)c3ccccc3C2=O)CC1 | HEC-1-A | cell growth or viability, MTT | 48 h | 15.8 µM
CN(C)C(=S)N(C)N=Cc1ccccc1SSc1ccccc1C=NN(C)C(=S)N(C)C | breast, ovarian, colorectal cancer cells | MTT | 72 h, four cancer cell lines | < 0.4 µM
C=CCc1ccc(OCc2nnc(SCC(=O)Nc3ccc(Cl)cc3Cl)o2)c(OC)c1 | MCF7, SK-OV-3, PC-3 | cell growth, MTT |  | ≤ 10 µM
COCC1CN(C2CCN(c3cc(OC)c(Nc4ncc(Br)c(Nc5ccc6c(c5P(C)(C)=O)OCCO6)n4)cc3C)CC2)C1 | Ba/F3 EGFR Del19/T790M/C797S | cell growth, CellTiter-Glo | 3 days | 0.0249 µM
N#Cc1c(-c2ccc(Cl)cc2)cc(-c2cccc3ccccc23)nc1NNC(=O)Cc1ccccc1 | RKOp27 | cell growth or viability, MTT | 72 h | 0.016 µM
COc1ccc2nc(NC(=O)c3ccc(C(N)c4ccccc4)cc3)sc2c1 (centres unmarked) | NCI-H2122 | cell growth or viability |  | 0.022 µM
C=C1C(=O)OC2CC3=C[C@@H](C/C(C)=C/C(OC(=O)Cc4cccc5ccccc45)[C@H]12)OC3=O (some centres unmarked) | KATO III | cell growth or viability, MTT | 24 h | 0.65 µM
